{"data": "Measured values of several laboratories", "ACTA1 pyrene-labeled": "Actin, alpha skeletal muscle, pyrene-labeled (ACTA1, Oryctolagus cuniculus, UniProt P68135)", "gag-pol reverse transcriptase": "Gag-Pol polyprotein, reverse transcriptase (gag-pol, Human immunodeficiency virus 1, UniProt P03366)", "Uncharacterized protein": "Uncharacterized protein (Equus caballus, UniProt Q38RB9)", "Cytochrome P450 2A13": "Cytochrome P450 2A13 (Homo sapiens, UniProt Q16696)", "note": "Lines come from different studies, so protocols differ. ± gives the spread as reported.", "UniProt Q16696, sequence (whole entry, looked up)": "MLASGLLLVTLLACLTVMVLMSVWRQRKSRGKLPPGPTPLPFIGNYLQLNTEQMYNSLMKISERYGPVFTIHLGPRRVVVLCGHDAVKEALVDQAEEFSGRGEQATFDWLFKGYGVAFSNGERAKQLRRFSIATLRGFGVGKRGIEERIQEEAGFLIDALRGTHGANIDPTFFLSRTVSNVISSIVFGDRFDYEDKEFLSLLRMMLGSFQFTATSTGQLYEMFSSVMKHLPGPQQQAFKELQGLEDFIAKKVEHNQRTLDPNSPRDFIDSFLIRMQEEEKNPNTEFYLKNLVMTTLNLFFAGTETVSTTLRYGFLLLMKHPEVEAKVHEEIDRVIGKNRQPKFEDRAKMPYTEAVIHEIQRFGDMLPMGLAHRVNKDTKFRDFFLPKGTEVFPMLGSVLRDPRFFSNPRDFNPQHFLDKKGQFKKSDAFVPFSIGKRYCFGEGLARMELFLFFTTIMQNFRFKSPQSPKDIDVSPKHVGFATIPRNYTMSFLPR", "UniProt P03313, sequence (whole entry, looked up)": "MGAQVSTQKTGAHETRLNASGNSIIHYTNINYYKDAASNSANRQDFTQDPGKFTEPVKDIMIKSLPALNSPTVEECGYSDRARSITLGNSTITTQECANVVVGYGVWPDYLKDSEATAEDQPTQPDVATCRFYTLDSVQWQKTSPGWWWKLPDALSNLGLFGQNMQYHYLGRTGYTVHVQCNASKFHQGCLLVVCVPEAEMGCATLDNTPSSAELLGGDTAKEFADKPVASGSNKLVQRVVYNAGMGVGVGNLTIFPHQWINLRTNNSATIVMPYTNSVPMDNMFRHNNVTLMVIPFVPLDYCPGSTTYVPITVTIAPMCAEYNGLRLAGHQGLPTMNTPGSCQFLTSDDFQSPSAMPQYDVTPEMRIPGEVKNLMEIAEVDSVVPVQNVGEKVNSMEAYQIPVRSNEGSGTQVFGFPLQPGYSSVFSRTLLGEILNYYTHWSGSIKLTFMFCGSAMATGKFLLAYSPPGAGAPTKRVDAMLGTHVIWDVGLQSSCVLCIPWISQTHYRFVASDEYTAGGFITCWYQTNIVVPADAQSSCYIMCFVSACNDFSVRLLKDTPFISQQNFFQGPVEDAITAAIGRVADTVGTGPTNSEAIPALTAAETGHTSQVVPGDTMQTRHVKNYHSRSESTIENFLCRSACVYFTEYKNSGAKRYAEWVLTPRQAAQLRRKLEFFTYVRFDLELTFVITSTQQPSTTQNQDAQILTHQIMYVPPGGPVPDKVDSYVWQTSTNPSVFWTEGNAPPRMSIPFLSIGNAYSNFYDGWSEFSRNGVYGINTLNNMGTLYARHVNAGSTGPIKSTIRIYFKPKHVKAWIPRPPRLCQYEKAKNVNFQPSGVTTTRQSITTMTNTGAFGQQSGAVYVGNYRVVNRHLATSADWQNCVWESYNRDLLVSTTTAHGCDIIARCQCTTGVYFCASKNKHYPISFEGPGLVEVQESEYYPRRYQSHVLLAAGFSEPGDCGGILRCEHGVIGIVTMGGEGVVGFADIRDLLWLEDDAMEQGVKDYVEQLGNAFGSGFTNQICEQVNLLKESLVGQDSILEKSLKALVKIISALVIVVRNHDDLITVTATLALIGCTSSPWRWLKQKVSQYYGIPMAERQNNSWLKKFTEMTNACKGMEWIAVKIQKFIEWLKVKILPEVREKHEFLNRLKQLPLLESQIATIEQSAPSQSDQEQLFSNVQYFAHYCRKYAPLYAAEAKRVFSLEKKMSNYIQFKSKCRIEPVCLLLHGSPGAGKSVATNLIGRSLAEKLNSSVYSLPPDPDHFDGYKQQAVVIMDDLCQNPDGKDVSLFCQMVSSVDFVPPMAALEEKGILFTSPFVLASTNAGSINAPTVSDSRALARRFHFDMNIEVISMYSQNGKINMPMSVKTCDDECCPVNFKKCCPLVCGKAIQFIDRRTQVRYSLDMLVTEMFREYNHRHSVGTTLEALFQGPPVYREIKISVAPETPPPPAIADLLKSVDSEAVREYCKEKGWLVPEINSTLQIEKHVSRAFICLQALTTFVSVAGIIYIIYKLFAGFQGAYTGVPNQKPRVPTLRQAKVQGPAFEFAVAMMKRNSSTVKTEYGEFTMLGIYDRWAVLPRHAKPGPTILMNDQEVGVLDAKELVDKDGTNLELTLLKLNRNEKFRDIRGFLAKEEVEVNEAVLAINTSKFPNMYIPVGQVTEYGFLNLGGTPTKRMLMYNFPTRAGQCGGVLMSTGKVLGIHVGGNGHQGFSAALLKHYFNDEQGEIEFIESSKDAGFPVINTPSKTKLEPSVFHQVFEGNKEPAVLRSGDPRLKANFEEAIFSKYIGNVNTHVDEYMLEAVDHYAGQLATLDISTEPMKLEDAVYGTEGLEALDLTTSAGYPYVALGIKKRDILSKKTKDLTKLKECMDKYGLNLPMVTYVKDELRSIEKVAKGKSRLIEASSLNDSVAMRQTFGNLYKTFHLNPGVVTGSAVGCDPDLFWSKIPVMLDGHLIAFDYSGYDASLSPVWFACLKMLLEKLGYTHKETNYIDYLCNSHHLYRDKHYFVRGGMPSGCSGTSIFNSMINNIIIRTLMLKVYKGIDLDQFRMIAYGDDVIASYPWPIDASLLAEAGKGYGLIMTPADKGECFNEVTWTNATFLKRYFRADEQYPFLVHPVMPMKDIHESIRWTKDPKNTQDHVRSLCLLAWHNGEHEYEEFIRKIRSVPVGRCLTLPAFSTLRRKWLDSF", "UniProt P15207, sequence (whole entry, looked up)": "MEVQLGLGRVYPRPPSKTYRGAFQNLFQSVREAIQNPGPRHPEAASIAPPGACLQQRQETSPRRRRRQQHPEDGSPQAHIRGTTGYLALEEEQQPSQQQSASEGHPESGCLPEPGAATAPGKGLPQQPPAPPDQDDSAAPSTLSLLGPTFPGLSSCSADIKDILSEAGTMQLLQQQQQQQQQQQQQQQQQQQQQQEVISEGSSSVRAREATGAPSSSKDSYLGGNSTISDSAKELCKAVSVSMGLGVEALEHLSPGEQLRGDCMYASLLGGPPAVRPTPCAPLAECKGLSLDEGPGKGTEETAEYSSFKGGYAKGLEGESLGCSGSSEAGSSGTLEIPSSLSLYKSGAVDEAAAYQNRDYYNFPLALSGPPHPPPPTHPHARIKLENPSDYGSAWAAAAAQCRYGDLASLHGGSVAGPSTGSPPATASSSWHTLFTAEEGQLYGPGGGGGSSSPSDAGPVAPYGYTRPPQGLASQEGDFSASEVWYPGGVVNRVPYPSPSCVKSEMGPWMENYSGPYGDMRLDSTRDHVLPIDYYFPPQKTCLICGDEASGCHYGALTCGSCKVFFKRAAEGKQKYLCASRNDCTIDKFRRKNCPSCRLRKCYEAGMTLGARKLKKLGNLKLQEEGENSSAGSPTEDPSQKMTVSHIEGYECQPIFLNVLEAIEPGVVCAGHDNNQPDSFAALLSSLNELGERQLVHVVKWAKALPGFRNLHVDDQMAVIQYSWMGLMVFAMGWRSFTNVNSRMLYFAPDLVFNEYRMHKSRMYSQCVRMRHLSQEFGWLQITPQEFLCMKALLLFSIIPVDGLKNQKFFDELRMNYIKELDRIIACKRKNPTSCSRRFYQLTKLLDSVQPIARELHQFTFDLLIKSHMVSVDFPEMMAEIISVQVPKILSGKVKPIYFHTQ", "UniProt Q99436, sequence (whole entry, looked up)": "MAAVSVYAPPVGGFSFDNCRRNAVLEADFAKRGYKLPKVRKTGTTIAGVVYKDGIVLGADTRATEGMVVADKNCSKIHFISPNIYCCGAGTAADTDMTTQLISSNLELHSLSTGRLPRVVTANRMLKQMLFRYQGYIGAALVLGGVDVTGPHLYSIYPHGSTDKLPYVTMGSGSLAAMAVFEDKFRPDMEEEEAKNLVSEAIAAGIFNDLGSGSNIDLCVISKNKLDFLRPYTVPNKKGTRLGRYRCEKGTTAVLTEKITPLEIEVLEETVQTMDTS", "UniProt Q14994, sequence (whole entry, looked up)": "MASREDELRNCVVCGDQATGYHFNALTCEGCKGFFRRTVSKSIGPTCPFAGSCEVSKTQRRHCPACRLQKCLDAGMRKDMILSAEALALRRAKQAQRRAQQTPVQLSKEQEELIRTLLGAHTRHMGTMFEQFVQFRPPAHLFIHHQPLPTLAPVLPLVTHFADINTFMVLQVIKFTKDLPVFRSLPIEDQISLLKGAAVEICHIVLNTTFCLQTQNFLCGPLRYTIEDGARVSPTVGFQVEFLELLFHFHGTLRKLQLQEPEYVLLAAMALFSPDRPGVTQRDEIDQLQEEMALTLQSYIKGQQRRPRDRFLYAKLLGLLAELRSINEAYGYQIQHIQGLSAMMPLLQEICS", "UniProt Q15722, sequence (whole entry, looked up)": "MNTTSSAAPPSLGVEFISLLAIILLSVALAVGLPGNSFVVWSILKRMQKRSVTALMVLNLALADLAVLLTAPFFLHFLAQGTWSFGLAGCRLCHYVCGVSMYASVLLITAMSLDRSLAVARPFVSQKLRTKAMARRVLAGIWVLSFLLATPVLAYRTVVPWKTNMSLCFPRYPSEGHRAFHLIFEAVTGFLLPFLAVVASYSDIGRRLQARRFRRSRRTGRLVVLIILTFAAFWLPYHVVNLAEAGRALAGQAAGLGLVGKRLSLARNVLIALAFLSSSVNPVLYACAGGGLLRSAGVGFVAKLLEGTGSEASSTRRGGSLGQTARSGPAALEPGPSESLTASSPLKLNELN", "UniProt Q00987, sequence (whole entry, looked up)": "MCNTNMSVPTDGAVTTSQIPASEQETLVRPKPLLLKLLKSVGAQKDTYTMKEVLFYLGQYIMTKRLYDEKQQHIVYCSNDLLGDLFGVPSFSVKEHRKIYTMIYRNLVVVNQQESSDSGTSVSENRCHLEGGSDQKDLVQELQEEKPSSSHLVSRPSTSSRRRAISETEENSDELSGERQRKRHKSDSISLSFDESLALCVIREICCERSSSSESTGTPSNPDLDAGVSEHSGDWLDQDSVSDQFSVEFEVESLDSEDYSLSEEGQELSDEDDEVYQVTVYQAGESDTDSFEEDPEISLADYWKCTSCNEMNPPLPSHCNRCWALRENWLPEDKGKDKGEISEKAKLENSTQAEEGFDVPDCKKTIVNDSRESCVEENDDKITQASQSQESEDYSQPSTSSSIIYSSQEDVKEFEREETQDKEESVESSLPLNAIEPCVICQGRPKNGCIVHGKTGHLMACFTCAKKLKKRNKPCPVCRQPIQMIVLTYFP"}
{"Compound": "C/C1=C/C(=O)O[C@@H]2C[C@@H](CC[C@H](C)/C=C\\C=C\\CC1)O[C@@](OCCc1ccccc1)([C@@H]1CSC(=O)N1)C2", "target": "ACTA1 pyrene-labeled", "assay": "actin polymerization, pyrene actin", "IC50 [nM]": "184 ± 48"}
{"Compound": "O=C1CSC(c2cccc(Cl)c2Cl)N1c1cccc(S(=O)(=O)Nc2nccs2)c1 (stereo not shown)", "target": "gag-pol reverse transcriptase", "IC50 [nM]": "> 4000"}
{"Compound": "C[C@H]1CN(c2n[nH]c3nc(N[C@H]4CC[C@H](NS(=O)(=O)CCC(F)(F)F)CC4)ncc23)CCO1", "target": "Cytoplasmic dynein 1 heavy chain 1 (DYNC1H1, Homo sapiens, UniProt Q14204)", "assay": "biochemical", "IC50 [nM]": "≥ 20000"}
{"Compound": "O=C1CSC(c2c(F)cccc2Cl)N1c1nc(-c2ccc(S(=O)(=O)N3CCCC3)cc2)cs1 (stereo not shown)", "target": "gag-pol reverse transcriptase", "IC50 [nM]": "> 4000"}
{"Compound": "CC[C@H](C)[C@H](NC(=O)[C@H](CCSC)NC(=O)[C@@H](NC(=O)[C@@H](NC(=O)[C@H](CCCCN)NC(=O)[C@H](CCCCN)NC(=O)[C@H](CO)NC(=O)[C@H](Cc1ccc(O)cc1)NC(=O)[C@H](CC(=O)O)NC(=O)[C@@H](N)CCCCN)C(C)C)[C@@H](C)O)C(=O)O", "target": "Uncharacterized protein", "assay": "peptide binding, competitor, competitive radioligand binding", "system": "purified horse MHC class I", "setting": "pH 7", "IC50 [nM]": 16}
{"Compound": "COc1cc(Nc2ncc(F)c(Nc3ccc4c(n3)NC(=O)C(C)(C)O4)n2)cc(OC)c1OC", "target": "Leukotriene B4 receptor 1 (LTB4R, Homo sapiens, UniProt Q15722)", "IC50 [nM]": "> 10000"}
{"Compound": "O=C1CSC(c2ccc(Cl)cc2)N1c1nc(-c2ccc(S(=O)(=O)N3CCOCC3)cc2)cs1 (stereo not shown)", "target": "gag-pol reverse transcriptase", "IC50 [nM]": 650}
{"Compound": "COc1ncccc1-c1cnn2ccc(N3CCN(C(=O)OC(C)C)CC3)nc12", "target": "Glutamate NMDA receptor; GRIN1/GRIN2A (Homo sapiens, UniProt Q05586+Q12879)", "assay": "liability screen", "IC50 [nM]": "> 25000"}
{"Compound": "CO[C@]1([C@@H]2CSC(=O)N2C(=O)c2ccccc2)C[C@H]2C[C@@H](CC[C@H](C)/C=C\\C=C\\CC/C(C)=C\\C(=O)O2)O1", "target": "ACTA1 pyrene-labeled", "assay": "actin polymerization, pyrene actin", "IC50 [nM]": "834 ± 109"}
{"Compound": "COc1ccc(C[C@H](NC(=O)[C@H](C)NC(=O)CN2CCOCC2)C(=O)N[C@@H](CC2CCC(C)CC2)C(=O)[C@@]2(C)CO2)cc1 (stereo partly shown)", "target": "Proteasome subunit beta type-7 (PSMB7, Homo sapiens, UniProt Q99436)", "assay": "inhibitor, competitive ABPP", "system": "Raji cell lysate", "setting": "constitutive proteasome β2c", "IC50 [nM]": 6420}
{"Compound": "CC(C)C[C@H](NC(=O)[C@H](Cc1ccccc1)NC(=O)c1cnccn1)B(O)O", "target": "Dipeptidyl peptidase 2 (Homo sapiens, UniProt Q9UHL4)", "assay": "enzyme activity, inhibitor", "setting": "added: FP-biotin 1 µM", "IC50 [nM]": 8510}
{"Compound": "COc1cccc(C2SCC(=O)N2c2nc(-c3ccc(S(=O)(=O)N4CCOCC4)cc3)cs2)c1 (stereo not shown)", "target": "gag-pol reverse transcriptase", "IC50 [nM]": "> 4000"}
{"Compound": "CCOC(=O)O[C@]1(C(=O)COC(=O)CC)CC[C@H]2[C@@H]3CCC4=CC(=O)C=C[C@]4(C)[C@H]3[C@@H](O)C[C@@]21C", "target": "Androgen receptor (Ar, Rattus norvegicus, UniProt P15207)", "assay": "inhibitor", "IC50 [nM]": 710}
{"Compound": "CCOC(=O)[C@H]1Cc2c(cc([N+](=O)[O-])cc2[N+](=O)[O-])[C@@H](O)[C@@]12C(=O)Nc1ccc([N+](=O)[O-])cc12", "target": "E3 ubiquitin-protein ligase Mdm2 (MDM2, Homo sapiens, UniProt Q00987)", "IC50 [nM]": "2600 ± 340"}
{"Compound": "CC(C)(C)C#Cc1cc(-c2ccnc(N)c2)cc2c(N)n[nH]c12", "target": "Inhibitor of nuclear factor kappa-B kinase subunit alpha (CHUK, Homo sapiens, UniProt O15111)", "assay": "inhibitor", "IC50 [nM]": 24.7}
{"Compound": "CC[C@H](C)[C@H](NC(=O)[C@H](CC(C)C)NC(=O)[C@@H](NC(=O)[C@H](CCCCN)NC(=O)CNC(=O)[C@H](CCCCN)NC(=O)[C@H](Cc1ccccc1)NC(=O)[C@H](CC(=O)O)NC(=O)[C@@H](N)CCCNC(=N)N)[C@@H](C)CC)C(=O)O", "target": "Uncharacterized protein", "assay": "peptide binding, competitor, competitive radioligand binding", "system": "purified horse MHC class I", "setting": "pH 7", "IC50 [nM]": 9.1}
{"Compound": "CC(=O)c1ccc2ccc3cccc4ccc1c2c34", "target": "Cytochrome P450 2A13", "assay": "enzyme activity, inhibitor", "setting": "20 min, pH 7.4", "IC50 [nM]": "400 to 10000"}
{"Compound": "O=[N+]([O-])c1cc(N2[C@@H]3CC[C@H]2COC3)ccc1NCc1ccc(CN2C[C@H](O)[C@@H](O)[C@H](O)[C@H]2CO)cc1", "target": "Ganab (Mus musculus, UniProt Q8BHN3)", "assay": "enzyme activity, inhibitor", "setting": "added: 4-methylumbelliferyl substrate", "IC50 [nM]": "< 1"}
{"Compound": "CO[C@H]1C[C@H](O[C@@H]2/C(C)=C/C[C@@H]3C[C@@H](C[C@]4(CC[C@H](C)[C@@H](C5CCCCC5)O4)O3)OC(=O)[C@@H]3C=C(C)/C(=N/O)[C@H]4OC/C(=C\\C=C\\[C@@H]2C)[C@]43O)O[C@@H](C)[C@@H]1O", "target": "Nuclear receptor subfamily 1 group I member 3 (Homo sapiens, UniProt Q14994)", "assay": "biochemical", "IC50 [nM]": "2760 ± 990"}
{"Compound": "CN(C)c1nc(N)c(C(=O)NC(=N)N)nc1Cl", "target": "Genome polyprotein, 3D RNA polymerase (Coxsackievirus B3, UniProt P03313)", "assay": "RNA polymerase activity, inhibitor, single AMP incorporation", "setting": "Mg2+ preincubation", "IC50 [nM]": "424000 ± 31000"}
{"Compound": "OC1c2cccc3ccc4c5ccccc5cc(c4c23)C1O (stereo not shown)", "target": "Cytochrome P450 2A13", "assay": "enzyme activity, inhibitor", "setting": "20 min, pH 7.4", "IC50 [nM]": "> 200000"}
{"Compound": "O=C1C(P(=O)(O)O)CC(O)N1O (stereo not shown)", "target": "enolase (ENO1 and ENO2)", "assay": "enzyme activity, inhibitor, NADH-linked", "setting": "added: 2-phosphoglycerate", "IC50 [nM]": "~20"}
{"Compound": "COc1ccc(-c2cc(=O)c3c(O)cc(O)cc3o2)cc1", "target": "Cytochrome P450 2A13", "assay": "enzyme activity, inhibitor", "setting": "20 min, pH 7.4", "IC50 [nM]": "> 200000"}
{"Compound": "N#Cc1ccc(Nc2ncc(Cc3ccc(-c4ccccc4)cc3)o2)cc1", "target": "gag-pol reverse transcriptase", "assay": "enzyme activity, inhibitor", "system": "HIV-1", "IC50 [nM]": "> 100000"}
{"Compound": "O=c1cc(-c2ccccc2)oc2c1ccc1ccccc12", "target": "Cytochrome P450 2A13", "assay": "enzyme activity, inhibitor", "setting": "20 min, pH 7.4", "IC50 [nM]": "15000 to 80000"}
{"Compound": "CC[C@H](C)[C@H](NC(=O)[C@H](Cc1c[nH]cn1)NC(=O)[C@H](CCCNC(=N)N)NC(=O)[C@H](CC(C)C)NC(=O)[C@H](CCC(N)=O)NC(=O)[C@H](CO)NC(=O)[C@H](CC(N)=O)NC(=O)[C@@H]1CCCN1C(=O)[C@@H](NC(=O)[C@H](CC(=O)O)NC(=O)[C@@H](N)CCCCN)C(C)C)C(=O)O", "target": "Uncharacterized protein", "assay": "peptide binding, competitor, competitive radioligand binding", "system": "purified horse MHC class I", "setting": "pH 7", "IC50 [nM]": 45}
{"Compound": "C#Cc1ccc2ccc3cccc4ccc1c2c34", "target": "Cytochrome P450 2A13", "assay": "enzyme activity, inhibitor", "setting": "20 min, pH 7.4", "IC50 [nM]": "> 100000"}
{"Compound": "CCCC[C@@H](NC(=O)[C@@H](N)Cc1c(C)cc(O)cc1C)C(=O)NCC(=O)N[C@@H](Cc1ccc(F)cc1)C(=O)N(C)CCC[C@@]1(c2ccc(F)cc2)OCc2cc(C#N)ccc21", "target": "Mu-type opioid receptor (Oprm1, Rattus norvegicus, UniProt P33535)", "IC50 [nM]": 2.24}
{"note": "A few entries again:"}
{"Compound": "CC[C@H](C)[C@H](NC(=O)[C@H](CCSC)NC(=O)[C@@H](NC(=O)[C@@H](NC(=O)[C@H](CCCCN)NC(=O)[C@H](CCCCN)NC(=O)[C@H](CO)NC(=O)[C@H](Cc1ccc(O)cc1)NC(=O)[C@H](CC(=O)O)NC(=O)[C@@H](N)CCCCN)C(C)C)[C@@H](C)O)C(=O)O", "target": "Uncharacterized protein", "assay": "peptide binding, competitor, competitive radioligand binding", "system": "purified horse MHC class I", "setting": "pH 7", "IC50 [nM]": 16}
{"Compound": "COc1cc(Nc2ncc(F)c(Nc3ccc4c(n3)NC(=O)C(C)(C)O4)n2)cc(OC)c1OC", "target": "Leukotriene B4 receptor 1 (LTB4R, Homo sapiens, UniProt Q15722)", "IC50 [nM]": "> 10000"}
{"Compound": "O=C1CSC(c2ccc(Cl)cc2)N1c1nc(-c2ccc(S(=O)(=O)N3CCOCC3)cc2)cs1 (stereo not shown)", "target": "gag-pol reverse transcriptase", "IC50 [nM]": 650}
